Measured values of several laboratories.
Parts stem from different laboratories: compare values within a part only.

Study 1 — effect on: enzyme activity; mode: inhibitor; concentration: 20 µM; notes: hit confirmation
Target: Replicase polyprotein 1ab, main protease (rep, Severe acute respiratory syndrome coronavirus 2, UniProt P0DTD1)
`C=CCNC(=O)c1cc([N+](=O)[O-])cc2c(=O)[nH]c(Nc3ccc(Cl)c(Cl)c3)nc12` gave an inhibition of -4.9%.
The inhibition of `CO[C@@H]1[C@H](OC(=O)NC(=O)CCl)CC[C@]2(CO2)[C@H]1[C@@]1(C)O[C@@H]1CC=C(C)C` is reported as 54.1%.
For `Cc1cc(C)cc(N2C(=O)CC(Sc3nnc[nH]3)C2=O)c1` (stereo not drawn), the inhibition was 66.2%.
`Cc1ccc(C(=O)n2nc(-c3cccnc3)nc2N)cc1` gave an inhibition of 84.3%.

Study 2 — cell line: HEK-293T/ACE2; effect on: pseudovirus infection; organism: VSV pseudotyped with SARS-CoV-2 spike; concentration: concentration not given; reference: vehicle-treated
The GFP-positive cells of `O=C1CN(/N=C/c2ccc(-c3ccc([N+](=O)[O-])cc3)o2)C(=O)[N-]1.[Na+]` is reported as 76%.
With `Cc1ccc([C@@H]2O[C@H](CO)[C@@H](O)[C@H](O)[C@H]2O)cc1Cc1ccc(-c2ccc(F)cc2)s1` the GFP-positive cells was 125%.
For `Cl.O=C1[C@@H]2[C@H]3CC[C@H](C3)[C@@H]2C(=O)N1C[C@@H]1CCCC[C@H]1CN1CCN(c2nsc3ccccc23)CC1`, the GFP-positive cells was 72.7%.
For `COc1cc2nccc(Oc3ccc(NC(=O)C4(C(=O)Nc5ccc(F)cc5)CC4)cc3)c2cc1OC`, the GFP-positive cells was 75.7%.

Study 3 — effect on: enzyme activity; mode: inhibitor; concentration: 20 µM
Target: Replicase polyprotein 1ab, polymerase (rep, Severe acute respiratory syndrome coronavirus 2, UniProt P0DTD1)
`COc1ccc(CCO[C@@H]2CCCC[C@H]2N2CC[C@@H](O)C2)cc1OC` has an inhibition of -5.99%.
The inhibition of `NS(=O)(=O)c1ccc2c(c1)C1C=CCC1C(c1ccc(Br)cc1)N2` (stereo not drawn) is reported as 2.14%.
`CN1CC(=O)NC1=N` gave an inhibition of -0.91%.
`CC1(C)CCC(C)(C)c2cc(C3(c4ccc(C(=O)O)cc4)OCCO3)ccc21` gave an inhibition of -10.3%.
For `Cc1[nH]c(/C=C2\C(=O)Nc3ccc(F)cc32)c(C)c1C(=O)NC[C@H](O)CN1CCOCC1`, the inhibition was 11.4%.
`C/C(=N\NC(=O)C(NC(=O)c1ccccc1)c1n[nH]c(=O)c2ccccc12)c1cccc(Br)c1` (stereo not drawn) gave an inhibition of 0.38%.
With `Cc1ncc(CO)c(CN)c1O` the inhibition was 0.41%.
`C=C1CC[C@H](O)C/C1=C/C=C1\CCC[C@]2(C)[C@@H]([C@H](C)CCCC(C)(C)O)CC[C@@H]12` gave an inhibition of -3.17%.
The inhibition of `N#C/C(=C\c1ccc(O)c(O)c1)C(=O)NCc1ccccc1` is reported as 91.7%.
For `C=CCc1cccc(/C=N/NC(=O)CN2CCN(Cc3ccccc3)CC2)c1O`, the inhibition was -2.24%.
The inhibition of `CCCC(CCC)C(=O)Nc1ccn([C@@H]2O[C@H](CO)[C@@H](O)C2(F)F)c(=O)n1` is reported as 0.64%.
For `Cc1cc(Nc2ncc(Cl)c(Nc3ccccc3S(=O)(=O)C(C)C)n2)c(OC(C)C)cc1C1CCNCC1`, the inhibition was 10.6%.
For `COc1cc(C[C@@H](CO[C@@H]2O[C@H](CO)[C@@H](O)[C@H](O)[C@H]2O)[C@H](CO[C@@H]2O[C@H](CO)[C@@H](O)[C@H](O)[C@H]2O)Cc2ccc(O)c(OC)c2)ccc1O`, the inhibition was -3.81%.
With `C[C@@H]1CN(c2c(F)c(F)c3c(=O)c(C(=O)O)cn(C4CC4)c3c2F)C[C@H](C)N1` the inhibition was -3.18%.

Study 4 — method: RNA Bind-n-Seq; molecule type: RNA; medium: in vitro; concentration: not given; reference: input RNA pool; reading: higher = stronger binding
Target: RING finger protein unkempt homolog, zinc fingers 1-6, GST-SBP tag (UNK, Homo sapiens, UniProt Q9C0B0, residues 30-357)
Chain of UniProt Q9C0B0 (30-357, looked up): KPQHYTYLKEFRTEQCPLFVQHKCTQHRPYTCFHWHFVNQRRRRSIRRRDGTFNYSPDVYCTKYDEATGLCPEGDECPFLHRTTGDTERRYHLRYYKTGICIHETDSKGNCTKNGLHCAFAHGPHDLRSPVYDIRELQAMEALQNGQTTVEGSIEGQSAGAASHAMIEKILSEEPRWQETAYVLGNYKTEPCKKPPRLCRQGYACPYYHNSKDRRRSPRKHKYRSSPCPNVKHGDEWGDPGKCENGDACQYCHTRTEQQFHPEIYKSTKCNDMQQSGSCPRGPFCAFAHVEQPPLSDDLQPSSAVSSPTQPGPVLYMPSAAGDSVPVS
Notes: RNA with constant flanks, human-mouse chimeric sites, ends assumed
`GGGAGUUCUACAGUCCGACGAUCAUGGAGAAGGAUUCUCUGCCCCGCUUUGUGCGCUCUGAAUUUUAUAAGGAGCUAAUCAAGUAGUCAUUUAGCCAGGCUAUGAAAUCAUGCCCUGUGAGUUGAGUUACAUCCUUUGUAGCACAACAGAGGAUUGAGCAUCA` has a bound/input enrichment of 0.503 ratio.
The bound/input enrichment of `GGGAGUUCUACAGUCCGACGAUCCAGUCCCCGUGUCCCAGUGCAGGACGAUGUGAACAAAUCGAAGACAUGGACCCUCUAUUGUAGUUCUUGAUUCUCGAGUGCCAUUAUUAUUGUUUGUCUUUUUUUUUUUUUUUUUAAAGACAACAGAGGAUUGAGCAUCA` is reported as 1.52 ratio.
The bound/input enrichment of `GGGAGUUCUACAGUCCGACGAUCGGCCUGGGACCGUCCUGGCUAGUGCAAAAUAGCGGCAUGGAGGCUCAGAGAGGAAAGUUUGUUAGUGGAGGCAGUGGUAGAGGCCGUCAUGUACGGUCCUUUACUCGAUAGAUGUGUUCUCAACAGAGGAUUGAGCAUCA` is reported as 0.627 ratio.
The bound/input enrichment of `GGGAGUUCUACAGUCCGACGAUCAUGGAGAAGGAUUCUCUGCCUCGCUUUGUGCGCUCUGAAUUUUAUAAGGAGCUAAUCAAGUAGUCAUCUGGUCAGGCUUCCAAAAGUUCCUGUGAGUGUUGAGUUACAUCCUUUGUAGCACAACAGAGGAUUGAGCAUCA` is reported as 0.322 ratio.

Study 5 — method: protein-binding microarray; molecule type: double-stranded DNA, one strand shown; medium: in vitro; concentration: not given; reading: higher = stronger binding
Target: Transcriptional repressor CTCF (CTCF, Homo sapiens, UniProt P49711, residues 1-727, full length assumed)
Chain of UniProt P49711 (whole entry, looked up): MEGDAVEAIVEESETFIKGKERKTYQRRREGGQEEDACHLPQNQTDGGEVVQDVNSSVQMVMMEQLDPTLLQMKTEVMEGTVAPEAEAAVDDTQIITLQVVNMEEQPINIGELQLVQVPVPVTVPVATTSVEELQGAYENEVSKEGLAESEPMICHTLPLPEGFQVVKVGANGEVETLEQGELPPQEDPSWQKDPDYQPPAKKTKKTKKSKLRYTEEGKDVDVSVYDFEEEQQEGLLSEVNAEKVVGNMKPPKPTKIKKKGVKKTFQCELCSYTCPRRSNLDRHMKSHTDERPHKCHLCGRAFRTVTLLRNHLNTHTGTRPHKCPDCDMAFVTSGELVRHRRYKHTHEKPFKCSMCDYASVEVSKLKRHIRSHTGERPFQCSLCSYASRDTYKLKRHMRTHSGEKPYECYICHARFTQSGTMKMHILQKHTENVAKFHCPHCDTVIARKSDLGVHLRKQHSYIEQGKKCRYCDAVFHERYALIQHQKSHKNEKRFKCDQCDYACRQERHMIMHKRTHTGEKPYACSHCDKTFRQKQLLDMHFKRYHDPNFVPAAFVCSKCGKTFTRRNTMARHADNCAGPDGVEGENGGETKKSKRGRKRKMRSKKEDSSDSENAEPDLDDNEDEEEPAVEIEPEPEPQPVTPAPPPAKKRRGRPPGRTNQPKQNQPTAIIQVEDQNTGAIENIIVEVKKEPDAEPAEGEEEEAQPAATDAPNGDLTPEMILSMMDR
Notes: k-mer, scored over probes, only values ≥0.25
`AAATTATG` gave an E-score of 0.331.
For `CAACAAAA`, the E-score was 0.286.
With `GTAATACA` the E-score was 0.281.
`AATTGCGC` gave an E-score of 0.373.

Repeated from above (study 3):
`C/C(=N\NC(=O)C(NC(=O)c1ccccc1)c1n[nH]c(=O)c2ccccc12)c1cccc(Br)c1` (stereo not drawn) gave an inhibition of 0.38%.
With `Cc1ncc(CO)c(CN)c1O` the inhibition was 0.41%.
`C=C1CC[C@H](O)C/C1=C/C=C1\CCC[C@]2(C)[C@@H]([C@H](C)CCCC(C)(C)O)CC[C@@H]12` gave an inhibition of -3.17%.
